Results from different studies.
Each line is one published result; not all experiments were run side by side.
Cell line: Hs-578T

For `O=C(Nc1nnc2c1c(-c1ccc(Cl)cc1)nc1sc(=Cc3ccco3)c(=O)n12)c1ccccc1` (mixture of isomers), the cell growth was 58.2% (SRB; 10 µM, NCI60 single-dose screen; baseline: untreated).
`Cc1ccc([N+](=O)[O-])cc1S(=O)(=O)N(C)/N=C/c1cnc2ccc(Br)cn12` gave an IC50 of 0.586 µM (cell growth or viability).
With `CCN(C(=O)c1cc(F)ccc1Oc1nncnc1N1CCC2(C1)CN([C@H](CCCN(C)CCOC)C(C)C)C2)C(C)C` the GI50 was > 10 µM (cell growth or viability; 7 days).
`CNS(=O)(=O)Nc1nccc(Cc2c(C)c3ccc(Oc4ncccc4F)cc3oc2=O)c1F` gave an IC50 of > 1 µM (cell viability; 7 days).
With `CC(C)c1ccc(N(C)c2ccc3c(c2)OCC[C@H]3CNc2cnccc2C(=O)O)cc1` the IC50 was 0.0139 µM (cell viability, CellTiter-Glo; 7 days).
For `C1=[N+]2CCCC[N+]3=Cc4ccc5[n]4[Au-]23[n]2c1ccc2-c1nc2ccccc2nc1-5.F[P-](F)(F)(F)(F)F`, the TGI was 4 -log M (NCI60 five-dose screen).
`COC(=O)N1c2ccc3c(nc(Cc4ccccc4)n3[C@@H]3CCC[C@@H](C(=O)O)C3)c2CC[C@@H]1C` has an IC50 of 1.02 µM (cell growth or viability, ATP luminescence; 10 days).
`CN(C)CCN1CCN(c2ccc3nc(-c4ccc5nc(-c6ccc(C(F)(F)F)cc6)[nH]c5c4)[nH]c3c2)CC1` gave a growth percent of 52.8% (SRB; 10 µM, 48 h).

Some of these lines once more:
For `C1=[N+]2CCCC[N+]3=Cc4ccc5[n]4[Au-]23[n]2c1ccc2-c1nc2ccccc2nc1-5.F[P-](F)(F)(F)(F)F`, the TGI was 4 -log M (NCI60 five-dose screen).
